Published values collected from several papers.
Each numbered part is a random draw from the data of one study; scales do not carry over between parts. Substitutions count along the parent as printed.
UniProt O00238, sequence (whole entry, looked up): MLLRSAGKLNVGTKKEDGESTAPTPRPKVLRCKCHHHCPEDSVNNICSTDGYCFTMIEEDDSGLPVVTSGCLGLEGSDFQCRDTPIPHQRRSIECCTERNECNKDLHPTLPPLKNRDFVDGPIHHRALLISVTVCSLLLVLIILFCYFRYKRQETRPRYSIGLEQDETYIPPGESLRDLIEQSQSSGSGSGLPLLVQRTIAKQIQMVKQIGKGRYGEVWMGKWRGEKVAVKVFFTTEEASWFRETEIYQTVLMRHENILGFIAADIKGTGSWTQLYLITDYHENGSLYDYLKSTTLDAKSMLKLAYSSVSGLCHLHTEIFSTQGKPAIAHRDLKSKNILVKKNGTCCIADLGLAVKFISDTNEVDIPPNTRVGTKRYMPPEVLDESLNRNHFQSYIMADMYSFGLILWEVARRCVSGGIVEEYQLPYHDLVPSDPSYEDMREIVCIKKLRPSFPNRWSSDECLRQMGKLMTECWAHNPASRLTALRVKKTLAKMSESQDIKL
UniProt O14733, sequence (whole entry, looked up): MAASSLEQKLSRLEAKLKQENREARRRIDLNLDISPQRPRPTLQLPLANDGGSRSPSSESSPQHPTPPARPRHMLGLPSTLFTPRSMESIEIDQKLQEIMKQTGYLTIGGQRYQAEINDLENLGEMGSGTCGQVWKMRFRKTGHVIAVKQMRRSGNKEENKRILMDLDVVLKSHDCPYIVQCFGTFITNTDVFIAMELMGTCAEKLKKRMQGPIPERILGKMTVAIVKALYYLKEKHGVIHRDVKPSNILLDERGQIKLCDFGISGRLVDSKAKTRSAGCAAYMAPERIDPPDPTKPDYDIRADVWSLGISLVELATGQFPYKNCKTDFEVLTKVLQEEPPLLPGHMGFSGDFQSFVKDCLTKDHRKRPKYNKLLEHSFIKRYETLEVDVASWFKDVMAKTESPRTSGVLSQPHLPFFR
UniProt P57059, sequence (whole entry, looked up): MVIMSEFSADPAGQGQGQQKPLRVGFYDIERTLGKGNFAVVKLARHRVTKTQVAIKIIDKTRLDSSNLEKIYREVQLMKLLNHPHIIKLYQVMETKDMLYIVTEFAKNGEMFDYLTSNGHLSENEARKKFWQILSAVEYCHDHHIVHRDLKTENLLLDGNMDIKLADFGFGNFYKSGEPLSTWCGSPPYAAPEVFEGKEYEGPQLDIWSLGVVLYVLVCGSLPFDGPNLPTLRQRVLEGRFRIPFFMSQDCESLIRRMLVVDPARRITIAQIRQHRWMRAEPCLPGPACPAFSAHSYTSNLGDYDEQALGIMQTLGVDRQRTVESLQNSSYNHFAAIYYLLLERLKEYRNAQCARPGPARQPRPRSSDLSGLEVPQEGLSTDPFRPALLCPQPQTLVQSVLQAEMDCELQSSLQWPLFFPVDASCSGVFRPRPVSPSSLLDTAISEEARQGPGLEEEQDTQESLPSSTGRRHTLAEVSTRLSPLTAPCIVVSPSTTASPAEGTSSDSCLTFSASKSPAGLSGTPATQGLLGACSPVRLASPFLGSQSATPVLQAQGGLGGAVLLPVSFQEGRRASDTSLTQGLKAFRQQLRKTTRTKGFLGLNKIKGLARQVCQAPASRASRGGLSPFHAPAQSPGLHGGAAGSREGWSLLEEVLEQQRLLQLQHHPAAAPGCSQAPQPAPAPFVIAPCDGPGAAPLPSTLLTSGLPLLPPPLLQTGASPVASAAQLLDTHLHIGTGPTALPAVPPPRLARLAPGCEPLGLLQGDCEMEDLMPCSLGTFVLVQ
UniProt Q9UM73, sequence (whole entry, unmodified, looked up): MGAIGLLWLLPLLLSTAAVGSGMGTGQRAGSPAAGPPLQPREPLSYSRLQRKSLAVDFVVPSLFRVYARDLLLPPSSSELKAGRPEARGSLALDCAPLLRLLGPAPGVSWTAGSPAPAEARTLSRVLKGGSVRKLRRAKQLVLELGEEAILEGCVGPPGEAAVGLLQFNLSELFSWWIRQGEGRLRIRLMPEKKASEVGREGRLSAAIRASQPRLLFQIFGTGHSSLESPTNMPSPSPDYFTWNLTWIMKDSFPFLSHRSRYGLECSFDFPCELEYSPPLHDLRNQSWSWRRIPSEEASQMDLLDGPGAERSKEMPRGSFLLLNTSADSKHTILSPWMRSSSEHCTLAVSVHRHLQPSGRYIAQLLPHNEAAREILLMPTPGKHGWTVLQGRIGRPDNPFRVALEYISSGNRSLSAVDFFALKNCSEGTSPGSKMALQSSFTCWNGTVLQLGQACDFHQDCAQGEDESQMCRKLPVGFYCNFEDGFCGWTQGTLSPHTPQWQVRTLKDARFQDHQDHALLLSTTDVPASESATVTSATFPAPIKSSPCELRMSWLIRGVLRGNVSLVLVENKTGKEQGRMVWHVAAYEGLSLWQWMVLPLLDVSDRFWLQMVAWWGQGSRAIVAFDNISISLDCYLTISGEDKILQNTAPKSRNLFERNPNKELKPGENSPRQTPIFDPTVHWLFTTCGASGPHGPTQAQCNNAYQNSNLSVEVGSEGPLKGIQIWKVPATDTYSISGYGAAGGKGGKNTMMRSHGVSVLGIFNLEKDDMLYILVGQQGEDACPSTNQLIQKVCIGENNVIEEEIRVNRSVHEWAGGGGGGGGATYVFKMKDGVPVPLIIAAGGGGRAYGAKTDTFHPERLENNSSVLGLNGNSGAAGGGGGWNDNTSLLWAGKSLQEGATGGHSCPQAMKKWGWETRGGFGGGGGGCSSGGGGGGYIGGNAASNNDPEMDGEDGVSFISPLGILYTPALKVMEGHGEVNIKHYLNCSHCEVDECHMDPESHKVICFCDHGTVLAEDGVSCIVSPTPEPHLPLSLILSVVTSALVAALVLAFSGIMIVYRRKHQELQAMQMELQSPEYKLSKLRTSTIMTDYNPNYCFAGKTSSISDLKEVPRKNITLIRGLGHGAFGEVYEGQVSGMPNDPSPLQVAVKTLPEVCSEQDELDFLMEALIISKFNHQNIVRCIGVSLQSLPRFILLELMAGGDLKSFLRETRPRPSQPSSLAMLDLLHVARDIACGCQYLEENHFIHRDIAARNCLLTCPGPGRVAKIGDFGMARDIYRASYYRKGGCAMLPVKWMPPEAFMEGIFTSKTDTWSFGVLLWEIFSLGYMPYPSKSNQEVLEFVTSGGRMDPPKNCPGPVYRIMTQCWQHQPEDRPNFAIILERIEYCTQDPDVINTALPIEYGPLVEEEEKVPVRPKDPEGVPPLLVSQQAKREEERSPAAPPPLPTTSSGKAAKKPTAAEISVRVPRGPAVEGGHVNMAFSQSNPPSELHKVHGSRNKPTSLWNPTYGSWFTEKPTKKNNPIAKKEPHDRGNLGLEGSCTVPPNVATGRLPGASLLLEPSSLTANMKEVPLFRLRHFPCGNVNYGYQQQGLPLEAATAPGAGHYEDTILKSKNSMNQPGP
UniProt Q8TDR2, sequence (whole entry, looked up): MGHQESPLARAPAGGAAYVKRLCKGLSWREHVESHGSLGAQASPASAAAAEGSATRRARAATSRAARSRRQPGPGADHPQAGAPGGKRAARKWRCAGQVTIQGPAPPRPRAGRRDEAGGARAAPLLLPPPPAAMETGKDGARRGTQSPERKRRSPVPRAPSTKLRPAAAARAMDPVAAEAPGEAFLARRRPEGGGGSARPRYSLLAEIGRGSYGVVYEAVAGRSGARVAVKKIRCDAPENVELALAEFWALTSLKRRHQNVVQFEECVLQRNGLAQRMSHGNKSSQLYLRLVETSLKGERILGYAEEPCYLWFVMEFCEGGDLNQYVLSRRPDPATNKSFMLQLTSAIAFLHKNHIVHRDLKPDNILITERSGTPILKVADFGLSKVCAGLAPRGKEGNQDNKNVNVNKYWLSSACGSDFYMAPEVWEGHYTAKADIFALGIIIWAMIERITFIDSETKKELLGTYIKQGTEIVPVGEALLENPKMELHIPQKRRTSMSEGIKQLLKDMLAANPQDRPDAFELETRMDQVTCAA
UniProt P07949, sequence (whole entry, unmodified, looked up): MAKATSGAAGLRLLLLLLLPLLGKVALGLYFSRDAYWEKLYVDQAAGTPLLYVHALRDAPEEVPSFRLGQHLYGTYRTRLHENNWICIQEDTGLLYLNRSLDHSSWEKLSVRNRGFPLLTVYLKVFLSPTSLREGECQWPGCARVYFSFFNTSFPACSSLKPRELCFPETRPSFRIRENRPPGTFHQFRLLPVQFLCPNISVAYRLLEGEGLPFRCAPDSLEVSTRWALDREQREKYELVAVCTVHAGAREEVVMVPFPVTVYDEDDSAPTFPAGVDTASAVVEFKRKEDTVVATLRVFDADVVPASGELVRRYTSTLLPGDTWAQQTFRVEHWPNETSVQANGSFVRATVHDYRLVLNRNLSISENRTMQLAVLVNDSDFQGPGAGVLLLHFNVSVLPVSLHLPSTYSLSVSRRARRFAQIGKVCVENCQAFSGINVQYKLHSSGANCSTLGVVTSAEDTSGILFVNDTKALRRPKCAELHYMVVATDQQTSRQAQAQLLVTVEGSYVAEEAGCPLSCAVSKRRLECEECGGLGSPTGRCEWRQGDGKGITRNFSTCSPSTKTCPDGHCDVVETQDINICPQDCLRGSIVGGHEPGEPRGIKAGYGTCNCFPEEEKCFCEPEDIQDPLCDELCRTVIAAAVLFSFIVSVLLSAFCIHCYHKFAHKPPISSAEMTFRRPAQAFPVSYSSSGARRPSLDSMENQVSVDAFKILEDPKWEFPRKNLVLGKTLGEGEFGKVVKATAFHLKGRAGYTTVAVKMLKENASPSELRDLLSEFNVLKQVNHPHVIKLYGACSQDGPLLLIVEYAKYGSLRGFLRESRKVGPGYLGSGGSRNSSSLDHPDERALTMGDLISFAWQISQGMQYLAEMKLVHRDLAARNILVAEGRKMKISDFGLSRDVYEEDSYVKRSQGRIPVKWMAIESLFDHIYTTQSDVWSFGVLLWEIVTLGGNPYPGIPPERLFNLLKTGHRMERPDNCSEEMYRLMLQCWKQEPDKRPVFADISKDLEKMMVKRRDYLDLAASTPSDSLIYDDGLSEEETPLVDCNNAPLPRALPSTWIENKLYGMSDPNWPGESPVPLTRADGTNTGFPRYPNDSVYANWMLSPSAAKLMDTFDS

Series 1 — concentration: 1 µM
SMILES: CCCOc1ccc([C@@H]2[C@@H](C(=O)O)[C@H](c3ccc4c(c3)OCO4)CN2CC(=O)Nc2c(CC)cccc2CC)cc1
target	effect on	technique	remaining binding
Serine/threonine-protein kinase mTOR (MTOR, Homo sapiens, UniProt P42345)	cell-free assay	competition with immobilised ligand	100%
Serine/threonine-protein kinase BRSK1 (BRSK1, Homo sapiens, UniProt Q8TDC3)	cell-free assay	competition with immobilised ligand	100%
Serine/threonine-protein kinase 35 (STK35, Homo sapiens, UniProt Q8TDR2)	cell-free assay	competition with immobilised ligand	98%
Serine/threonine-protein kinase SIK1 (SIK1, Homo sapiens, UniProt P57059)		competition binding	100%
Proto-oncogene tyrosine-protein kinase receptor Ret (RET, Homo sapiens, UniProt P07949, M918T)	cell-free assay	competition with immobilised ligand	97%
Bone morphogenetic protein receptor type-1B (BMPR1B, Homo sapiens, UniProt O00238)	cell-free assay	competition with immobilised ligand	82%
Serine/threonine-protein kinase WNK2 (WNK2, Homo sapiens, UniProt Q9Y3S1)	cell-free assay	competition with immobilised ligand	88%
ALK tyrosine kinase receptor (ALK, Homo sapiens, UniProt Q9UM73, C1156Y)	cell-free assay	competition with immobilised ligand	79%
Serine/threonine-protein kinase ICK (CILK1, Homo sapiens, UniProt Q9UPZ9)	binding	competition with immobilised ligand	100%
Dual specificity mitogen-activated protein kinase kinase 7 (MAP2K7, Homo sapiens, UniProt O14733)	cell-free assay	competition with immobilised ligand	91%

Series 2 — target: CREB5, bZIP domain (human); technique: DHFR protein complementation; matrix: yeast; baseline: wild-type JUN-FOS pair; reading: higher = stronger binding
Notes: single substitutions, most at no-binding floor
Starting sequence: JUN, bZIP domain (human); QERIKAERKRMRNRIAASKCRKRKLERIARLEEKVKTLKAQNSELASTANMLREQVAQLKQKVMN; partner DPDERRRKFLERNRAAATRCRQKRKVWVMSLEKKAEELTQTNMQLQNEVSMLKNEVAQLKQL
Substitution	binding fitness [natural log]
N42M	-1.01
V35R	-1.35
L38F	-1.25
T48D	-0.683
E54K	-0.476
E44I	-0.507
L45P	-1.35
R30S	-0.15

Series 3 — effect on: enzyme activity; mode: inhibitor; concentration: 0.5 µM; baseline: control
Target: Serine/threonine-protein kinase haspin (HASPIN, Homo sapiens, UniProt Q8TF76)
Residues (Q8TF76 1-798): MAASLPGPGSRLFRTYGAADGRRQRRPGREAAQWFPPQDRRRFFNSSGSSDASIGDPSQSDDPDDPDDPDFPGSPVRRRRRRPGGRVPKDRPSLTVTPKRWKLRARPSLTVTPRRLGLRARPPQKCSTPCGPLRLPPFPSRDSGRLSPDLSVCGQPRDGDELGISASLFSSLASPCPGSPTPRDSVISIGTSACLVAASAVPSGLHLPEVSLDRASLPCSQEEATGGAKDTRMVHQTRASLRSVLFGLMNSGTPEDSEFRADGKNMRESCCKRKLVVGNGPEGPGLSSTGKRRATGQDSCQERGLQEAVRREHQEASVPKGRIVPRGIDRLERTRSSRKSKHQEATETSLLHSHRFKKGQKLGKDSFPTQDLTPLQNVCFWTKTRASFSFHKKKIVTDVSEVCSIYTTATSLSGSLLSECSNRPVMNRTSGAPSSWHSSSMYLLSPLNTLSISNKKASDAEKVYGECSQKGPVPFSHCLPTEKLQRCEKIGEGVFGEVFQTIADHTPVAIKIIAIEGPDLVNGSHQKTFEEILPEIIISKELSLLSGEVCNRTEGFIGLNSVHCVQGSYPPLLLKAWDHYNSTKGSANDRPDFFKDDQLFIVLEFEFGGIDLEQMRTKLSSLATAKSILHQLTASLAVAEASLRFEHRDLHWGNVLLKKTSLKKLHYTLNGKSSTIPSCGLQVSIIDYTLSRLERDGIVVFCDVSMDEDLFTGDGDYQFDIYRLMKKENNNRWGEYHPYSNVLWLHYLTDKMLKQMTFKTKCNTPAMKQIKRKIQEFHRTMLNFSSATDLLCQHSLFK
SMILES	remaining activity [%]
FC(F)(F)c1ccc(/C=C/c2nc(COc3ccc(CCCCn4ccnn4)cc3)co2)cc1	105
CC(C)n1cnc2c(Nc3cccc(Cl)c3)nc(NCCO)nc21	94.7
c1cc(-c2cnn3cc(-c4ccc(OCCN5CCCCC5)cc4)cnc23)ccn1	64
CCCCc1c(-c2ccc(O)cc2)[nH]c2nccnc12	65.3
NC(=O)c1cccc(-c2cc(Nc3ccc(OC(F)(F)F)cc3)ncn2)c1	105

Series 4 — technique: protein-binding microarray; molecule type: double-stranded DNA, one strand shown; matrix: in vitro; concentration: 2540 nM top; notes: 60-bp whole probe; together with: salmon DNA 0.4 mg/ml; baseline: random background probes; reading: higher = stronger binding; all sequences stand within: GCCTAGCAC … GTCTTGATTCGCTTGACGCTGCTG
Target: Interferon regulatory factor 3, full length, phosphomimetic (IRF3, Homo sapiens, UniProt Q14653, residues 1-427, S386D/S396D/S398D/S402D/T404D/S405D)
Target sequence (chain): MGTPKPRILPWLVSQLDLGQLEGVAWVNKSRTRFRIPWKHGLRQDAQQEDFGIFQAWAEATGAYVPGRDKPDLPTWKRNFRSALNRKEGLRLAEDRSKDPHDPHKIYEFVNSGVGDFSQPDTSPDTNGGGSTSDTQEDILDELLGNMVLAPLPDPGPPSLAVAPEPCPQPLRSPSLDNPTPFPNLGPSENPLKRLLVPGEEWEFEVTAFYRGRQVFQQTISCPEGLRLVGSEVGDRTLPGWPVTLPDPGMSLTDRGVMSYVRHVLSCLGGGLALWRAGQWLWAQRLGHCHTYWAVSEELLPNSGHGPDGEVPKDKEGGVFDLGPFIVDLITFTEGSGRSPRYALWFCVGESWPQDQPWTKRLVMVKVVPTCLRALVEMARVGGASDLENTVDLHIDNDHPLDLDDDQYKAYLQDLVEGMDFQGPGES
Sequence	fitted relative affinity
GACGGACTGCATCTCCTGACGTGCTAG	-0.372 z-score
TTAGGTTTCGGGATTCGGTTAGTGCTA	4.6 z-score
GACGAACTGAGTATCGAGACGTGCTAG	0.0494 z-score
GACGAACAGGGGTATCGAGACGTGCTA	-0.493 z-score
CCGAGAAACAGTAACCCTCTGTGCTAG	-0.353 z-score
GTGAGTCCCGAGAATGGTGTGGTGCTA	-1.23 z-score
AGAGCTCTGGCACCTCTAGACGTGCTA	-1.04 z-score
CCTGAAATCTCTTTCCTTACGTGCTAG	1.75 z-score

For quick reference, copied from above (series 1):
target	effect on	technique	remaining binding
Serine/threonine-protein kinase WNK2 (WNK2, Homo sapiens, UniProt Q9Y3S1)	cell-free assay	competition with immobilised ligand	88%
Serine/threonine-protein kinase 35 (STK35, Homo sapiens, UniProt Q8TDR2)	cell-free assay	competition with immobilised ligand	98%
Serine/threonine-protein kinase BRSK1 (BRSK1, Homo sapiens, UniProt Q8TDC3)	cell-free assay	competition with immobilised ligand	100%
